Measured values gathered from unrelated publications.
Lines come from different studies, so protocols differ.
Cell line: OVCAR-8

SMILES | test | setting | how to read | measurement | result
CCC(=C(c1ccc(Cl)cc1)c1ccc(OCCCN(C)C)cc1)c1ccc(OC)cc1 | cell growth or viability |  |  | GI50 | 8050 nM
CC(=O)OC[C@H]1O[C@@H](Sc2sc(C(=O)c3ccc(Br)cc3)c(N)c2-c2nc3ccccc3s2)[C@H](OC(C)=O)[C@@H](OC(C)=O)[C@@H]1OC(C)=O | SRB | 10 µM, 48 h | relative to: untreated | growth | 46.1%
CC(=C(c1ccc(O)cc1)c1ccc(Cl)cc1)c1ccc(Cl)cc1 | cell growth or viability |  |  | GI50 | 990 nM
COc1ccc(C2=Nn3c(NN=C4C(=O)N(C)c5ccc(Br)cc54)nnc3SC2)cc1 | cell growth or viability, SRB | 10 µM |  | inhibition | 13%
C#CC[C@H](NC(=O)CNC(=O)[C@H](CO)NC(=O)[C@@H]1CCCCNC(=O)CCCC(=O)N[C@@H](CCSC)C(=O)N[C@@H](Cc2ccccc2)C(=O)N2CCC[C@H]2C(=O)N[C@@H](Cc2c[nH]cn2)C(=O)N[C@@H](CCCNC(=N)N)C(=O)N[C@@H](C(C)C)C(=O)N[C@@H]([C@@H](C)O)C(=O)N[C@@H](C)C(=O)N(C)[C@@H](C)C(=O)N1)C(=O)O | western blot | concentration not given, with: cisplatin |  | p62 accumulation | no effect
CC/C=C\C/C=C\C/C=C\C/C=C\C/C=C\C/C=C\CCC(=O)Nc1ccn(C2OC(CO)C(O)C2(F)F)c(=O)n1 (centres unmarked) | cell growth or viability, SRB |  |  | GI50 | 34.5 nM
COc1ccc2c(c1)/C(=N\Nc1nnc3n1N=C(c1ccccc1)CS3)C(=O)N2 | cell growth or viability, SRB | 10 µM |  | inhibition | 51%
CC(=O)OC[C@H]1O[C@@H](Sc2sc(C(=O)c3ccc(C)cc3)c(N)c2-c2nc3ccccc3s2)[C@H](OC(C)=O)[C@@H](OC(C)=O)[C@@H]1OC(C)=O | SRB | 10 µM, 48 h | relative to: untreated | growth | 58.7%

Repeated from above:
SMILES | test | setting | how to read | measurement | result
C#CC[C@H](NC(=O)CNC(=O)[C@H](CO)NC(=O)[C@@H]1CCCCNC(=O)CCCC(=O)N[C@@H](CCSC)C(=O)N[C@@H](Cc2ccccc2)C(=O)N2CCC[C@H]2C(=O)N[C@@H](Cc2c[nH]cn2)C(=O)N[C@@H](CCCNC(=N)N)C(=O)N[C@@H](C(C)C)C(=O)N[C@@H]([C@@H](C)O)C(=O)N[C@@H](C)C(=O)N(C)[C@@H](C)C(=O)N1)C(=O)O | western blot | concentration not given, with: cisplatin |  | p62 accumulation | no effect
